Measured values collected from several papers.
A part holds a random share of what one study measured. Positions count from the first letter of the parent shown.

Set 1
Target: Prothrombin, mature alpha-thrombin (F2, Homo sapiens, UniProt P00734)
Method: aptamer microarray, sandwich
Molecule type: DNA with 2'F-ANA
Medium: in vitro
Concentration: 200 nM
Notes: whole 15-mer aptamer, many near background
With: Cy3 exosite-II aptamer, 400 nM
Reading: higher = stronger binding
Oligonucleotide: GGTTGGTGTGGTTGG
| Modification | mean fluorescence intensity [a.u.] |
| --- | --- |
| 2'F-ANA at 3 6 7 9 10 12 13 14 15 | 369 |
| 2'F-ANA at 1 2 3 5 6 7 10 11 14 | 46.3 |
| 2'F-ANA at 1 6 7 8 9 11 12 13 14 15 | 69.8 |
| 2'F-ANA at 1 5 7 13 14 | 42.3 |
| 2'F-ANA at 1 2 3 6 7 9 14 15 | 78.3 |
| 2'F-ANA at 1 2 3 4 8 10 13 15 | 52.2 |
| 2'F-ANA at 2 5 6 9 11 12 | 118 |

Set 2
Target: CCND3, cyclin fold, Cln2 fusion (human)
Method: yeast growth competition, sequencing
Medium: yeast
Notes: weak parent motif
Reference: not given
Reading: higher = stronger binding
Starting sequence: RB1 docking peptide (human); PKPLKKLRFDIEG; partner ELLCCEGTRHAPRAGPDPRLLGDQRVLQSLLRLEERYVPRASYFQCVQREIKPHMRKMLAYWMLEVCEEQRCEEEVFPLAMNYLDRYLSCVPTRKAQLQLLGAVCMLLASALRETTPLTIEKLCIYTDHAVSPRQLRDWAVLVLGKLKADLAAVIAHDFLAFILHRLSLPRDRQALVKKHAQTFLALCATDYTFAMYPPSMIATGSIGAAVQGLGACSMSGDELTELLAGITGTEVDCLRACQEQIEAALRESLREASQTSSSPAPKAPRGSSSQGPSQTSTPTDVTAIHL
| Change | normalised enrichment score |
| --- | --- |
| PKPLKKLRFDDEG [I11D] | 0.144 |
| PKPLKKARFDIEG [L7A] | 0.188 |
| PKPLKKLRFDTEG [I11T] | 0.0649 |
| GKPLKKLRFDIEG [P1G] | 0.149 |
| PKPLKKLRFWIEG [D10W] | 0.0582 |
| PKLLKKLRFDIEG [P3L] | 0.158 |
| PKPLKKGRFDIEG [L7G] | 0.151 |

Set 3
Target: Histone acetyltransferase KAT6A, both winged helices, GST fusion (KAT6A, Homo sapiens, UniProt Q92794, residues 1-181)
Method: protein binding microarray
Molecule type: double-stranded DNA, one strand shown
Medium: in vitro
Concentration: not given
Notes: 8-mer, flanks averaged, mean of 2 arrays, mostly near background
Reference: not given
Reading: higher = stronger binding
Target sequence (chain): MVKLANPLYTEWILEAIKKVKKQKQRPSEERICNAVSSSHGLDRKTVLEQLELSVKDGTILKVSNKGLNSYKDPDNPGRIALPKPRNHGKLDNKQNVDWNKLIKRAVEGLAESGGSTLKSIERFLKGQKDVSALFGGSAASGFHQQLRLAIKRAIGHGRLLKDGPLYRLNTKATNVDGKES
| Oligonucleotide | E-score |
| --- | --- |
| CGGTCAAG | 0.154 |
| CATGATCA | -0.00487 |
| ATACAGAC | -0.114 |
| GCATGGAC | 0.00755 |
| AAACCGTT | 0.0684 |
| AACCGGAA | 0.202 |
| AAACAGCG | 0.0969 |

Single results of other studies
| Molecule | target | assay | system | setting | how to read | measurement | result |
| --- | --- | --- | --- | --- | --- | --- | --- |
| PhoQ, residues 284 288 289 292 302 303 SLGVVW | PhoP, residues 12 14 15 18 19 QWHVF (Escherichia coli, UniProt P23836) | Sort-seq, refers to: YFP reporter | E. coli | PhoQ-PhoP variant library, with: 10 µM Mg2+ | reference: high Mg2+ state, higher = stronger signaling | fold induction | 8.57 |

A few entries again (set 2):
| Change | normalised enrichment score |
| --- | --- |
| PKPLKKLRFWIEG [D10W] | 0.0582 |
